Measured values from different studies.
Each line is one published result; not all experiments were run side by side. pIC50, pKd, pKi: −log10 of the molar value.
Target: Carbonic anhydrase 12 (CA12, Homo sapiens, UniProt O43570)
Sequence of UniProt O43570 (whole entry, looked up): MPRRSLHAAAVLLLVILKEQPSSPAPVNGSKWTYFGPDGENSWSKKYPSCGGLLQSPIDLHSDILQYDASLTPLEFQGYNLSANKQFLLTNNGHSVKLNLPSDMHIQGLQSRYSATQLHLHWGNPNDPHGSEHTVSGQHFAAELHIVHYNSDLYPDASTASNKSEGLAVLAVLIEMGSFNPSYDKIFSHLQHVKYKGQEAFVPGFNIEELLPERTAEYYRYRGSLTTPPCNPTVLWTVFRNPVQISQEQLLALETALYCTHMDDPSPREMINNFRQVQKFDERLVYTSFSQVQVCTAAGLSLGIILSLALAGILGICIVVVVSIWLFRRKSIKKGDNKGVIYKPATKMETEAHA

| Structure (SMILES) | effect on | mode | technique | pH | temperature | measurement | value |
| --- | --- | --- | --- | --- | --- | --- | --- |
| Cc1cc(C)cc(C(=O)Nc2cccc(S(N)(=O)=O)c2)c1 | enzyme activity | inhibitor | absorbance |  |  | pIC50 | 5.04 |
| Cc1ccc(S(=O)(=O)NC(C)c2ccccc2)cc1 (stereo not drawn) | enzyme activity | inhibitor |  |  |  | pIC50 | 5.71 |
| COc1cc(-c2ccnc3nc(Nc4ccc(S(N)(=O)=O)cc4)nn23)cc(OC)c1OC | enzyme activity | inhibitor | stopped-flow |  |  | pKi | 7.50 |
| COC(=O)CCCNC(=O)c1cc(S(N)(=O)=O)c(Cl)cc1NC1CCCCC1 |  |  | thermal shift | pH 7.0 | 37 °C | pKd | 7.70 |
| NS(=O)(=O)c1ccc(N2N=C(c3ccccc3O)CC2c2ccc(Br)cc2)cc1 (stereo not drawn) | enzyme activity | inhibitor | absorbance |  |  | pIC50 | 5.08 |
| COc1ccccc1/C=N/NC(=O)CSc1nc2ccccc2c(=O)n1CCc1ccc(S(N)(=O)=O)cc1 | enzyme activity | inhibitor | stopped-flow |  |  | pKi | 7.19 |
| COCCOc1cc2ncnc(Nc3cccc(-c4cn(CCc5ccc(S(N)(=O)=O)cc5)nn4)c3)c2cc1OCCOC | enzyme activity | inhibitor | stopped-flow |  |  | pKi | 6.45 |
| CC(=O)Nc1ccc(S(=O)(=O)N2CCN(C(=O)c3cc4ccccc4oc3=O)CC2)cc1 |  |  |  |  |  | pKi | 4.37 |
| COCCOc1cc2ncnc(Nc3cccc(-c4cn(-c5ccccc5S(N)(=O)=O)nn4)c3)c2cc1OCCOC | enzyme activity | inhibitor | stopped-flow |  |  | pKi | 7.55 |
| NS(=O)(=O)c1ccc(CCn2c(SCC(=O)N/N=C/c3ccccc3O)nc3ccccc3c2=O)cc1 | enzyme activity | inhibitor | stopped-flow |  |  | pKi | 7.99 |
| NS(=O)(=O)c1ccc(Nc2nc3nccc(-c4ccc5ccccc5c4)n3n2)cc1 | enzyme activity | inhibitor | stopped-flow |  |  | pKi | 7.20 |
| NS(=O)(=O)c1cc(C(=O)NCCCC(=O)O)c(NC2CCCCC2)cc1Cl |  |  | thermal shift | pH 7.0 | 37 °C | pKd | 7.72 |
| Cc1ccc(S(=O)(=O)Nc2ccccc2Sc2ccccc2)cc1 | enzyme activity | inhibitor |  |  |  | pIC50 | 5.87 |
| COc1cccc(/C(C)=N/NC(=O)CSc2nc3ccccc3c(=O)n2CCc2ccc(S(N)(=O)=O)cc2)c1 | enzyme activity | inhibitor | stopped-flow |  |  | pKi | 7.10 |
| COc1ccc(O)c(C2=NN(c3ccc(S(N)(=O)=O)cc3)C(c3ccc(Br)cc3)C2)c1 (stereo not drawn) | enzyme activity | inhibitor | absorbance |  |  | pIC50 | 5.37 |

Some of these lines once more:
| Structure (SMILES) | effect on | mode | technique | pH | temperature | measurement | value |
| --- | --- | --- | --- | --- | --- | --- | --- |
| COc1cccc(/C(C)=N/NC(=O)CSc2nc3ccccc3c(=O)n2CCc2ccc(S(N)(=O)=O)cc2)c1 | enzyme activity | inhibitor | stopped-flow |  |  | pKi | 7.10 |
| NS(=O)(=O)c1ccc(N2N=C(c3ccccc3O)CC2c2ccc(Br)cc2)cc1 (stereo not drawn) | enzyme activity | inhibitor | absorbance |  |  | pIC50 | 5.08 |
